Measured values of several laboratories.
A part holds a random share of what one study measured. Substitutions count along the parent as printed.

Set 1 — method: protein binding microarray; molecule type: double-stranded DNA, one strand shown; medium: in vitro; tested at: not given; relative to: not given; reading: higher = stronger binding; measurement: E-score
Target: Histone acetyltransferase KAT6A, both winged helices, GST fusion (KAT6A, Homo sapiens, UniProt Q92794, residues 1-181)
Notes: 8-mer, flanks averaged, mean of 2 arrays, mostly near background
Residues (chain): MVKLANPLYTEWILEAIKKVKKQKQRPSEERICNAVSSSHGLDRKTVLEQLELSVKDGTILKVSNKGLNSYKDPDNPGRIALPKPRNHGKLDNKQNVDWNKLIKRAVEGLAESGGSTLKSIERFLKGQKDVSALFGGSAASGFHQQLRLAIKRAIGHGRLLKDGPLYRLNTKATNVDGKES
CATGGCAC: 0.0686
AGTTACCC: -0.142
CTGGATCA: -0.184
GCAAGACA: 0.053
GTACAAGA: -0.0442
TAGTGCCA: -0.133
CATAGCAA: -0.155
CCGCAAGA: 0.133
CGGGATCA: 0.175
TAACGCAA: 0.184
TAACGCCA: 0.0518
TATGACAA: -0.0419
CGGCCCCG: 0.268
AAAGATTC: -0.0744
CAACCTAG: -0.0452
CCGGGCAC: 0.171
AAAAACCC: -0.0366
ATGGGCAA: -0.182
ATTGATTC: 0.106
AGGCGTGG: 0.00832
ACTGCTGG: -0.207
CCTGACCA: -0.188
AAAACTCT: -0.0224
GAAAGTCC: -0.0323
TCACCGCA: 0.0819

Set 2 — method: competition protein-binding microarray; molecule type: double-stranded DNA, one strand shown; medium: in vitro; tested at: 2 µM; with: Pho4 competitor, 0.05 µM; reading: higher = stronger binding; measurement: fluorescence intensity
Target: Centromere-binding protein 1, full length, His-tagged (CBF1, Saccharomyces cerevisiae, UniProt P17106, residues 1-351)
UniProt P17106, sequence (whole entry, looked up): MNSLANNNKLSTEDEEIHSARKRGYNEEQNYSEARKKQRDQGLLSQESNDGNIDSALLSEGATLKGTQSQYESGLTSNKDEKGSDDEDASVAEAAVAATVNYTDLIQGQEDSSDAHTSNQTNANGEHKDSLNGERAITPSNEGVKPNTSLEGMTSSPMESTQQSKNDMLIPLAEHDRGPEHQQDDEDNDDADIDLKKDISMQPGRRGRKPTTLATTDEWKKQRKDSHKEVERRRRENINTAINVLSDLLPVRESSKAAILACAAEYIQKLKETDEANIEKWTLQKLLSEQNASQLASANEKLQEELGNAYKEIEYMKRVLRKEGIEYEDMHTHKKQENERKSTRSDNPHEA
Notes: whole 60-bp probe, lowest competitor level
TGCGCAACAACTTGAAGGGTGGGTGTATGTCTAGAAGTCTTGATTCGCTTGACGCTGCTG: 70.1 a.u.
CTGTTCTGTTCATCGCATGTGCATATATATATATAGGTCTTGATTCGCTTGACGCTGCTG: 174 a.u.
CTAACGAAGGTTTGCCCCGTGGGTGACAAGCCAAGTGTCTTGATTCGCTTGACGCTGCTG: 77.4 a.u.
CTTGGAATCAACTTGGTCATGACAACACCAGCAGTTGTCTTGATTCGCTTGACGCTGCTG: 64.8 a.u.
CGGGGTTAAGTTTGCTGAGTGGGTGGCTTGCAGCAGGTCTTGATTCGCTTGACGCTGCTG: 68.3 a.u.
GTCTTGTCTCATTGGGGAGTGGGTGTCCCCACTTCAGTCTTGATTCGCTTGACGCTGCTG: 100 a.u.
CTAACGAAGGTTTGGTTGGTGGGTGACAAGCCAAGTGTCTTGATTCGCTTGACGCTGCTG: 75.2 a.u.
CAGCAAGTCCTTCCTCACCTGATCCTTCTCATCGTCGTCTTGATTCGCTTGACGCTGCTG: 120 a.u.
CTTTCCCGATCTTGATTAGTGGGTGTAGCACATTTGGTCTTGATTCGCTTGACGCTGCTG: 73.2 a.u.
TTCCAAATCTTTCCGAAAAAAATTCTCTAGCGGATTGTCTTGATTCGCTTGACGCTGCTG: 64.4 a.u.
AGCGGAGTTTCGAATTCCGTGTCCTTCTGAGCGTATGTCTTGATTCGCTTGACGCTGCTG: 71.4 a.u.
GTCTTGTCTCATTGGGGGGTGGGTGTCCCCACTTCAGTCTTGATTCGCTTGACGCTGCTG: 80.7 a.u.
AAAGCGGTAATTTGATGGGTGGGTGCAGATATCTATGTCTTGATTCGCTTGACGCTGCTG: 73.1 a.u.
AAGTGATGAGAATCGCACGTCTAGATAATGGCAGTAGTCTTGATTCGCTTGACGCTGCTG: 70.8 a.u.
AGCTGGGAAAACTTCCATGTGGTCTTCGTCCTCAACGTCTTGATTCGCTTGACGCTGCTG: 75.3 a.u.
AAAGCGGTAATTTGGGAGGTGGGTGCAGATATCTATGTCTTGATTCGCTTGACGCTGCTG: 75.8 a.u.
CTGCATCGGCCGGCCCATGTGAAAAGGAAGTATTTAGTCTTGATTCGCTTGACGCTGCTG: 88.2 a.u.
TTCTGCATCCAATATCACCTGACGTTCATCTTTATGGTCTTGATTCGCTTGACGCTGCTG: 883 a.u.
TGCGCAACAACTTGAAGCGTGGGTGTATGTCTAGAAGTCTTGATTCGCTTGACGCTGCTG: 70.2 a.u.

Set 3 — method: RNA Bind-n-Seq; molecule type: RNA; medium: in vitro; tested at: 1 µM; notes: whole 134-nt RNA, ends assumed; with: 150 mM KCl; relative to: input library; reading: higher = stronger binding; measurement: log2 enrichment
Target: Ras GTPase-activating protein-binding protein 1, RRM domain (G3BP1, Homo sapiens, UniProt Q13283)
UniProt Q13283, sequence (whole entry, looked up): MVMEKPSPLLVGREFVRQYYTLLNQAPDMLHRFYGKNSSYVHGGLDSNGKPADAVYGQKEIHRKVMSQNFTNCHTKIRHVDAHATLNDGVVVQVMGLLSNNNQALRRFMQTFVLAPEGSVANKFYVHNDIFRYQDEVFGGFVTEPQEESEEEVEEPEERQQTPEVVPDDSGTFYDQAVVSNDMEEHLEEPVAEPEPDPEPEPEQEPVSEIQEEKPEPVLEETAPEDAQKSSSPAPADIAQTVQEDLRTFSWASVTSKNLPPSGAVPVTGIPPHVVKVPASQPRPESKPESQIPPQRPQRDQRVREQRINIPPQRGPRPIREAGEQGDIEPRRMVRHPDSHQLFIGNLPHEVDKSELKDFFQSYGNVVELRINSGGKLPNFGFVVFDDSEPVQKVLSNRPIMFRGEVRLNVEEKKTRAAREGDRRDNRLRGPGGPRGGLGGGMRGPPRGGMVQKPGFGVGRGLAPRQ
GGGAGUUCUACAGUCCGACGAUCUGGCCAAUAGCAUCCUUUUCCAGUCUUCCGGUCUGACAAAUGGAAUAAUAGAAGAAAAGGACAUACAUGAAGAAUUGCCAAAACGGAAAGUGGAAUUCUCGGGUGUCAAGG: -0.0823
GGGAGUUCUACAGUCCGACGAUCGCAGGAAGUAAAAACAAAUGGAAAAAAUUCGGAUAGUGGCAGGGGUGGGGGUUGCUAAGGAAAGGGUGGGAUGGGAGUGGGUAAAGAGUUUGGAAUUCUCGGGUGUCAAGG: 0.86
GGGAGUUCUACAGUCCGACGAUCGUCCUGUGCUACACAUCGUAUGUACCGAAUCGGGUUUGGGAAAAAGGGUUUUUUUGGGAAAGUAUUAUGUUACGCCGUUCGGAUCUGCACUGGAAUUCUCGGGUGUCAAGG: 0.364
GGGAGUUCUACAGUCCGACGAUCAGUCCUGUGCUACACAUCGUAUGUACCGAAUCGGGUUUGGGUUUUUGGGUUUUUGGGAAAGUAUUAUGUUACGCCGUUCGGAUCUGCACUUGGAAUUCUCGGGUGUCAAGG: 0.467
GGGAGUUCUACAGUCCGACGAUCUGGCCCUGGUGGCAUGCGGGGAGGAAGAGGUGGCCUCAUGGAUCGUGGUGGUCCCGGUGGAAUGUUCAGAGGUGGCCGUGGUGGAGACGGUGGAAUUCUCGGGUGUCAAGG: 1.69
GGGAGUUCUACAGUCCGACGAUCUGCUUCAGACCAAGCGGAGCUCCCGGAGGCAAAGCCUGGAGCUGCAGAAGUGUGAAGAGAUCCUCCACAAGAUCGUGAAGUACCGCUUCAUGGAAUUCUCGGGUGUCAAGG: -0.552
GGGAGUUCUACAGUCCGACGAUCUCCUGUGCUACACAUCGUAUGUACCGAAUCAAAUUUUUAAAUUUUUAAAUUUUUUUAAAAAAGUAUUAUGUUACGCCGUUCGGAUCUGCAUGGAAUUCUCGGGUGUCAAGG: -0.00523
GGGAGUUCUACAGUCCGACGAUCGUCCUGUGCUACACAUCGUAUGUACCGAAUCAAAUUUUUAAAUUUUUAAAUUUUUAAAAAAGUAUUAUGUUACGCCGUUCGGAUCUGCACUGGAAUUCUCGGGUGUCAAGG: -0.792
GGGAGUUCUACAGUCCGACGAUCCAAAAUACCAAGGGAUUUAUAUGAGGAUGAGUUGGUGCCCCUUUUUGAGAAGGCCGGACCCAUUUGGGAUCUACGUCUUAUGAUGGAUCCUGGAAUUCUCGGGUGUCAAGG: -0.312

Set 4 — target: CCNA1, cyclin fold, Cln2 fusion (human); method: yeast growth competition, sequencing; medium: yeast; notes: weak parent motif; relative to: not given; reading: higher = stronger binding; measurement: normalised enrichment score
Starting sequence: INSM1 docking peptide (human); PKAIRKLHFEDEV
PKAIRKLHFEDSV [E12S]: 0.827
PKAIRKLHFEDHV [E12H]: 0.591
PKAIRKLHWEDEV [F9W]: 0.226
PKAIRKLHMEDEV [F9M]: 0.155
PKAIRQLHFEDEV [K6Q]: 0.629
PKAIWKLHFEDEV [R5W]: -0.0798
PKAIRKLHFKDEV [E10K]: 0.0581
PKAIEKLHFEDEV [R5E]: -0.14
PKLIRKLHFEDEV [A3L]: 0.0341
PKAIRKLHFADEV [E10A]: 0.567
PKAIRHLHFEDEV [K6H]: 0.445
PKAIHKLHFEDEV [R5H]: -0.055

Mixed results
PhoQ, residues 284 288 289 292 302 303 SCKMEA — fold induction (PhoP, residues 12 14 15 18 19 LWHSL (Escherichia coli, UniProt P23836); Sort-seq, refers to: YFP reporter; E. coli; PhoQ-PhoP variant library, with: 10 µM Mg2+; relative to: high Mg2+ state, higher = stronger signaling): 27.7

Some of these lines once more (set 2):
AAAGCGGTAATTTGGGAGGTGGGTGCAGATATCTATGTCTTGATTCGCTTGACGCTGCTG: 75.8 a.u.
TGCGCAACAACTTGAAGCGTGGGTGTATGTCTAGAAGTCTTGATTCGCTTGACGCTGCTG: 70.2 a.u.
TTCTGCATCCAATATCACCTGACGTTCATCTTTATGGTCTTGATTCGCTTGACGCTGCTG: 883 a.u.
AGCTGGGAAAACTTCCATGTGGTCTTCGTCCTCAACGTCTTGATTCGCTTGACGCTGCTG: 75.3 a.u.
CTAACGAAGGTTTGGTTGGTGGGTGACAAGCCAAGTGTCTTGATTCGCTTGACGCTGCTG: 75.2 a.u.
CTAACGAAGGTTTGCCCCGTGGGTGACAAGCCAAGTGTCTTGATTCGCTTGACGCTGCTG: 77.4 a.u.
TGCGCAACAACTTGAAGGGTGGGTGTATGTCTAGAAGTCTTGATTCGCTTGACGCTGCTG: 70.1 a.u.
